Assay results pooled from the literature.
A part holds a random share of what one study measured. Values joined by “and” are separate records of one study, mostly repeats; a detail may differ.

Block 1
Target: Prothrombin, mature alpha-thrombin (F2, Homo sapiens, UniProt P00734)
Method: aptamer microarray, sandwich
Molecule type: DNA with 2'F-ANA
Matrix: in vitro
Concentration: 200 nM
Notes: whole 15-mer aptamer, many near background
Together with: Cy3 exosite-II aptamer, 400 nM
Reading: higher = stronger binding
Oligonucleotide: GGTTGGTGTGGTTGG
| Modification | mean fluorescence intensity [a.u.] |
| --- | --- |
| 2'F-ANA at 1 2 4 6 13 15 | 71.5 |
| 2'F-ANA at 1 3 6 10 11 | 74.1 |
| 2'F-ANA at 1 2 6 8 9 11 12 13 14 | 63 |
| 2'F-ANA at 4 6 11 12 | 372 |
| 2'F-ANA at 2 4 5 6 7 8 9 11 12 13 14 | 55.3 |
| 2'F-ANA at 5 9 11 12 13 15 | 79.5 |
| 2'F-ANA at 2 3 4 11 12 13 | 712 |
| 2'F-ANA at 2 6 8 9 10 13 14 15 | 80.7 |

Block 2
Target: Ribosomal protein S6 kinase beta-1 (RPS6KB1, Homo sapiens, UniProt P23443)
UniProt P23443, sequence (whole entry, looked up): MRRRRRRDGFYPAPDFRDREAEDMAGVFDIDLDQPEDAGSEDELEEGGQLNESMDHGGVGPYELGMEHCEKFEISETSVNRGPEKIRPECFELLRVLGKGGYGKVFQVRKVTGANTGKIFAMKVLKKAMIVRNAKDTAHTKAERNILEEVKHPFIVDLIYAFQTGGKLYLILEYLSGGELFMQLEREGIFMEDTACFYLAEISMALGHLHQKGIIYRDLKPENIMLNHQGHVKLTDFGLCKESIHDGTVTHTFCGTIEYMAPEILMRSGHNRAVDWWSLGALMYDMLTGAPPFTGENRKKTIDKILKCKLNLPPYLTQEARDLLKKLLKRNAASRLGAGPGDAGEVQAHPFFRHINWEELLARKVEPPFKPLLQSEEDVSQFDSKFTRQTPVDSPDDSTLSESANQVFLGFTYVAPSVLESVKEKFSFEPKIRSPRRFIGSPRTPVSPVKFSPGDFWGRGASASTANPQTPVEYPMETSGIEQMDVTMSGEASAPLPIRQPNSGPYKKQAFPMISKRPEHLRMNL
Observed: enzyme activity
Mode: inhibitor
Concentration: 0.5 µM
Baseline: control
| SMILES | remaining activity [%] |
| --- | --- |
| O=C1C(Cl)=C(N2C(=O)CCC2=O)C(=O)c2ccccc21 | 101 |
| Cc1cn(-c2cc(NC(=O)c3ccc(C)c(Nc4nccc(-c5cccnc5)n4)c3)cc(C(F)(F)F)c2)cn1 | 98 |
| C[C@@H]1CCN(C(=O)CC#N)C[C@@H]1N(C)c1ncnc2[nH]ccc12 | 103 |
| O=C(Nc1cccc(Nc2nccc(Nc3cccc(C(F)(F)F)c3)n2)c1)C1CC1 | 98 |
| c1ccc(-c2[nH]ncc2-c2ccnc3ccccc23)nc1 | 106 |
| Ic1cccc(CSc2nnc(-c3ccncc3)o2)c1 | 100 |
| CCN(CC)C(=O)c1ccc(Nc2nc(OCC3CCCCC3)c3[nH]cnc3n2)cc1 | 89.5 |

Block 3
Target: Centromere-binding protein 1, full length, N-terminal tag (CBF1, Saccharomyces cerevisiae, UniProt P17106, residues 1-351)
UniProt P17106, sequence (whole entry, looked up): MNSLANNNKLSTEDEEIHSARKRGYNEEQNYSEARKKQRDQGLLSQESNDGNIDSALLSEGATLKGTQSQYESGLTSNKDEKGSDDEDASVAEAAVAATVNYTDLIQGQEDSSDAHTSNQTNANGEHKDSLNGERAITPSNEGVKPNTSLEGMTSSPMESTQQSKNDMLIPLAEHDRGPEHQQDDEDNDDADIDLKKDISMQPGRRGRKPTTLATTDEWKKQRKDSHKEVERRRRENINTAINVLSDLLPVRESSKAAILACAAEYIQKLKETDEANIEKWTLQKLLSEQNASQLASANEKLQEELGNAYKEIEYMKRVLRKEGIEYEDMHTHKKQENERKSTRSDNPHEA
Method: protein-binding microarray
Molecule type: double-stranded DNA, one strand shown
Matrix: in vitro
Concentration: 0.8 µM
Notes: whole 60-bp probe, no competitor
Reading: higher = stronger binding
Constant ends, left off below: … GTCTTGATTCGCTTGACGCTGCTG
| Oligonucleotide | fluorescence intensity [a.u.] |
| --- | --- |
| GAAGTTCCGCACTGTGACCACCGGAACGTACGTTAG | 529 |
| GAAATTGGAAATGCGCAGGTGAGCTGATTGATTTAG | 593 |
| TGTACGAAGCTATGTGACGTTCGTATAGTAGTTAGG | 513 |
| CTAGTATTTTACTGTGACGTACTTTTGCGCGCGTTC | 526 |
| CTAATCGCTATATTCATGGTGACGGCTCATCTCTTC | 531 |
| GAATACACAGCTACATGTGATATATATCGGGCGTAG | 1680 |
| GAAGGTTGCGTATGCCACGTACGAAAAGTTGTTTAG | 530 |
| GAAGCAAGGTCCCATCAGCTGTACAAAATAATCTAG | 568 |

Mixed results
| Compound | cell line | assay | setting | endpoint | value |
| --- | --- | --- | --- | --- | --- |
| Cn1cncc1[C@@](O)(COc1ccc(C#N)cc1-c1ccc(OC(F)(F)F)cc1)c1ccc(C#N)cc1 | HEK293T | high-content imaging | 10 µM, 0 h | cells with altered tubulin phenotype | 0.21% and 0.74% |

Excerpt of the above (block 2):
| SMILES | remaining activity [%] |
| --- | --- |
| O=C1C(Cl)=C(N2C(=O)CCC2=O)C(=O)c2ccccc21 | 101 |
| O=C(Nc1cccc(Nc2nccc(Nc3cccc(C(F)(F)F)c3)n2)c1)C1CC1 | 98 |
| c1ccc(-c2[nH]ncc2-c2ccnc3ccccc23)nc1 | 106 |
